Literature values as cited in several papers.
Protocols differ between the studies behind these lines.

SMILES | tested on | assay | system | conditions | how to read | measurement | value
O=C(NCC1CCOCC1)c1cnc(Nc2ccc(Cl)cc2Cl)nc1C(F)(F)F | cannabinoid receptor CB1 | agonist |  |  |  | EC50 | > 30000 nM
CO[C@]1(C(=O)N[C@@H](C)c2ccc(-n3cc(F)cn3)nc2)CC[C@H](c2nc(C)cc(Nc3cc(C)[nH]n3)n2)CC1 |  |  | patients |  |  | maximum tolerated dose | 400 mg once daily
CCOC(=O)[C@@H]1CSCC(=O)N[C@H](CC)C(=O)N(C)[C@@H](C)C(=O)N[C@@H](CC(C)C)C(=O)N(C)[C@H](C)C(=O)N(CC(C)C)CC(=O)N[C@@H](CC(C)C)C(=O)N(C)[C@H](C)C(=O)N[C@@H](CC(C)C)C(=O)N1C | MDCK |  |  |  |  | log permeability (Pe) | -6.07
CN1CCCC[C@@H]1Cn1cc(C(=O)c2cc([N+](=O)[O-])ccc2I)c2ccccc21 | cannabinoid receptor CB2 | agonist |  |  |  | EC50 | 118 nM
Cn1ncc2c(NC(=O)NCc3ccc(C(F)(F)F)cc3CCC(C)(C)C)cccc21 | TRPV1 | calcium flux, antagonist | HEK293 | added: capsaicin |  | IC50 | 7 nM
C=C1C[C@@H]2[C@H](CC[C@]3(C)C(=O)CC[C@@H]23)[C@@]2(C)C=CC(=O)C=C12 |  |  | healthy high-risk postmenopausal women | dose not given, long-term use |  | reduction in invasive breast cancer incidence | 65%
OCCN1CCN(CCC=C2c3ccccc3Sc3ccc(C(F)(F)F)cc32)CC1 | MCF7 | microarray, measured: BTG1 |  | concentration not given | reference: DMSO | mRNA fold change | 1.36
C[C@H](CCCC(C)(C)O)[C@H]1CC[C@H]2[C@@H]3CC=C4C[C@@H](O)CC[C@]4(C)[C@H]3CC[C@]12C | ORP1 | binding |  |  |  | Kd | 3900 nM

Repeated from above:
SMILES | tested on | assay | system | conditions | how to read | measurement | value
CN1CCCC[C@@H]1Cn1cc(C(=O)c2cc([N+](=O)[O-])ccc2I)c2ccccc21 | cannabinoid receptor CB2 | agonist |  |  |  | EC50 | 118 nM
